Assay results gathered from unrelated publications.
Compare with care: the assays were run in different laboratories. ± gives the spread as reported.
B1: enzyme (Bacillus pumilus, UniProt A8FFI9); chain EARSIAWSVDEFFKNREGTFVIQEVKEKSPWVYNKKRAKERFAPQSTFKVANALIGLQTGAVRDEYDIKYWDGVKREIDNWNRDHTLGSGMRDSVVWYYQAMARDIGEERMNHWVKAIHYGNKDISGGIDQFWLSSTLRISPIEQVRFLKQLYEETLPFDLKNMRTVKRMMVQEEEKHATLYGKTGSGSDIGWYVGFIKHEHKTYILATNIKGTGIEAKDITYRILKKYHLMEASV
B2: UGT1A9 (Homo sapiens, UniProt O60656); chain GKLLVVPMDGSHWFTMRSVVEKLILRGHEVVVVMPEVSWQLGRSLNCTVKTYSTSYTLEDLDREFKAFAHAQWKAQVRSIYSLLMGSYNDIFDLFFSNCRSLFKDKKLVEYLKESSFDAVFLDPFDNCGLIVAKYFSLPSVVFARGILCHYLEEGAQCPAPLSYVPRILLGFSDAMTFKERVRNHIMHLEEHLLCHRFFKNALEIASEILQTPVTEYDLYSHTSIWLLRTDFVLDYPKPVMPNMIFIGGINCHQGKPLPMEFEAYINASGEHGIVVFSLGSMVSEIPEKKAMAIADALGKIPQTVLWRYTGTRPSNLANNTILVKWLPQNDLLGHPMTRAFITHAGSHGVYESICNGVPMVMMPLFGDQMDNAKRMETKGAGVTLNVLEMTSEDLENALKAVINDKSYKENIMRLSSLHKDRPVEPLDLAVFWVEFVMRHKGAPHLRPAAHDLTWYQYHSLDVIGFLLAVVLTVAFITFKCCAYGYRKCLGKKGRVKKAHKSKTH

`CO[C@H]1/C=C/O[C@@]2(C)Oc3c(C)c(O)c4c(c3C2=O)C2=NC3(CCN(CC(C)C)CC3)NC2=C(NC(=O)/C(C)=C\C=C\[C@H](C)[C@H](O)[C@@H](C)[C@@H](O)[C@@H](C)[C@H](OC(C)=O)[C@@H]1C)C4=O` has an IC50 of 9.7 µM (Mycobacteroides abscessus; ATCC 19977; 1:1 CAMHB:human serum).
With `GAGUUGAGUUGAGUUGAGUUGAGUUGAGUUGAGUUGAGUUGAGUUGAGUUGAGUU (ssRNA; single strand)` the Kd was 0.2 ± 0.03 µM (mtrB full length assumed T30Q (Bacillus subtilis, UniProt P19466); filter binding; with: L-tryptophan 1 mM).
With `Cc1ncc(CO)c(/C=N/NC(=O)c2ccncc2)c1O` the IC50 was > 600 µM (Leishmania tarentolae; parasite growth, resazurin; promastigote).
`CCOc1ccc(-c2c[nH]c(N)n2)cc1` gave an IC50 of 27.9 µM (Mycolicibacterium smegmatis; biofilm formation, crystal violet).
`CCOC(=O)c1nc2ccccc2c(=O)n1Cc1cn(-c2cccc(C)c2)nn1` has an IC50 of 137 µg/mL (Candida tropicalis; microbial growth, broth dilution; ATCC750; 24 h).
`Cc1ccc(C(=O)N(C(=O)c2ccc(C)cc2)C(=S)N2N=C(c3ccc(F)cc3)CC2c2ccc(F)cc2)cc1` (stereo not shown) gave an IC50 of 165 ± 17.2 µM (Artemia; cytotoxicity; 24 h).
`O=C(O)c1nc2ccccc2c(=O)n1Cc1cn(-c2ccc(F)cc2)nn1` has an IC50 of 231 µg/mL (Candida tropicalis; microbial growth, broth dilution; ATCC750; 24 h).
The IC50 of `Cc1ccc(C(=O)N(C(=O)c2ccc(C)cc2)C(=S)N2N=C(c3ccccc3)CC2c2ccc(C)cc2)cc1` (stereo not shown) is reported as 124 ± 6.5 µM (Artemia; cytotoxicity; 24 h).
`Cc1ccc(Nc2nc(-c3cc(C(=O)Nc4cccc(F)c4)no3)cs2)cc1` gave an IC50 of > 100 µM (Mycobacteroides abscessus; Bamboo; 72 h).
`O=C(O)c1nc2ccccc2c(=O)n1Cc1cn(-c2cccc(Cl)c2)nn1` has an IC50 of 245 µg/mL (Candida tropicalis; microbial growth, broth dilution; ATCC750; 24 h).
`B1 (enzyme)` has a kcat of 56 ± 2 s⁻¹ (CC1(C)S[C@@H]2[C@H](NC(=O)[C@H](N)c3ccccc3)C(=O)N2[C@H]1C(=O)O; steady-state kinetics; pH 7).
For `N=C(N)c1ccc(OCCCCCOc2ccc(C(=N)N)cc2)cc1`, the IC50 was 2.05 ± 1.44 µM (Leishmania tarentolae; viability, resazurin; promastigotes, Schneider's medium; 48 h, 26 °C, with: 6 µM hemin).
With `B2 (UGT1A9)` the Vmax/Km was 910 µL/min/mg (O=c1cc(-c2ccccc2)oc2cc(O)c(O)cc12; steady-state kinetics; pH 7.4, 37 °C).
`O=C(O)c1nc2ccccc2c(=O)n1Cc1cn(-c2ccccc2F)nn1` gave an IC50 of 24.8 µg/mL (Candida tropicalis; microbial growth, broth dilution; ATCC750; 24 h).
The IC50 of `C=C(C)[C@@H]1CC[C@]2(C(=O)ON3C(=O)CCC3=O)CC[C@]3(C)[C@H](CC[C@@H]4[C@@]5(C)CC[C@H](O)C(C)(C)[C@@H]5CC[C@]43C)[C@@H]12` is reported as > 10 µM (HIV-1; viral replication, refers to: p24; MT4, NL4-3; 96 h).
For `Cc1ccc(C(=O)N(C(=O)c2ccc(C)cc2)C(=S)N2N=C(c3ccc(F)cc3)CC2c2cccc(F)c2)cc1` (stereo not shown), the IC50 was 115 ± 9.7 µM (Artemia; cytotoxicity; 24 h).
`Tin mesoporphyrin` has an IC50 of 64.1 ± 21.3 µM (Leishmania tarentolae; resazurin viability; promastigotes).
The IC50 of `O=c1c(O)c(-c2cc(O)c(O)c(O)c2)oc2cc(O)cc(O)c12` is reported as 2.5 ± 0.1 µM (human alphaherpesvirus 1; viral replication; HeLa, F; 24 h).
For `CCCOc1ccc(-c2nc(N)[nH]c2C(F)(F)F)cc1`, the IC50 was 17.1 µM (Mycolicibacterium smegmatis; biofilm formation, crystal violet).
The IC50 of `COc1ccccc1OCCNCC(O)COc1cccc2[nH]c3ccccc3c12` (stereo not shown) is reported as 51 µM (Lytechinus pictus; caffeine-induced Ca2+ release, inhibitor, Fluo-3 fluorimetry; egg homogenate; 2 min preincubation, with: caffeine 10 mM).
With `CS(=N)(=O)Cc1cccc(Nc2cc(NC3CC3)n3ncc(C#N)c3n2)c1` (stereo not shown) the IC50 was 10 µM (murine hepatitis virus; viral replication; 10 h).
`CCOC(=O)c1nc2ccccc2c(=O)n1Cc1cn(-c2cccc(Cl)c2)nn1` has an IC50 of 28 µg/mL (Candida tropicalis; growth, broth dilution; ATCC 750; 24 h).
With `Cc1ccc(Nc2nc(-c3cc(C(=O)Nc4ccncc4)no3)cs2)cc1` the IC50 was > 100 µM (Mycobacteroides abscessus; Bamboo; 72 h).
With `CCOC(=O)c1nc2ccccc2c(=O)n1Cc1cn(-c2ccccc2)nn1` the IC50 was 74.7 µg/mL (Candida tropicalis; microbial growth, broth dilution; ATCC750; 24 h).
With `Cc1cc(C)cc(Nc2nc(-c3cc(C(=O)Nc4ccccc4)no3)cs2)c1` the IC50 was > 100 µM (Mycobacteroides abscessus; Bamboo; 72 h).
With `CCOC(=O)c1nc2ccccc2c(=O)n1Cc1cn(-c2cccc(OC)c2)nn1` the IC50 was 113 µg/mL (Candida tropicalis; microbial growth, broth dilution; ATCC750; 24 h).
`Cc1ccc(Nc2nc(-c3cc(C(=O)Nc4cc(C)ccn4)no3)cs2)cc1` has an IC50 of > 100 µM (Mycobacteroides abscessus; Bamboo; 72 h).
With `O=C(O)c1nc2ccccc2c(=O)n1Cc1cn(-c2ccccc2[N+](=O)[O-])nn1` the IC50 was 521 µg/mL (Candida tropicalis; microbial growth, broth dilution; ATCC750; 24 h).
`CCCCCOc1ccc(-c2c[nH]c(N)n2)cc1` has an IC50 of 12.5 µM (Mycolicibacterium smegmatis; biofilm formation, crystal violet).
The Kd of `GCGGACGGACAGAGAGUGCAACCUGCCGUGCCGC (ssRNA; 2'-F pyrimidines, 5' thiol-C6)` is reported as 0.245 ± 0.0581 µM (ITGA5/ITGB1 on cells (Mus musculus); flow cytometry; MB49-Luc; apparent, no added Mg2+/Ca2+, not purified).
For `CC(C)=CCC/C(C)=C/CNCCNC1C2CC3CC(C2)CC1C3` (stereo not shown), the IC50 was 1 µM (Mycobacterium tuberculosis; growth; Erdman).
`COCCOc1ccc(-c2c[nH]c(N)n2)cc1` gave an IC50 of > 50 µM (Mycolicibacterium smegmatis; biofilm formation, crystal violet).
With `Cc1ccc(Nc2nc(-c3cc(C(=O)Nc4ccc(F)cc4)no3)cs2)cc1` the IC50 was > 100 µM (Mycobacteroides abscessus; Bamboo; 72 h).
The IC50 of `Cc1ccc(-c2c[nH]c(N)n2)cc1` is reported as 45 µM (Mycolicibacterium smegmatis; biofilm formation, crystal violet).
`Nc1nc2c(ncn2COCCO)c(=O)[nH]1` gave an IC50 of 1.14 ± 0.2 µM (human alphaherpesvirus 1; viral GFP expression, live cell imaging; Vero, K26, GFP-expressing; peak infection time).
`Cc1ccc(Nc2nc(-c3cc(C(=O)Nc4ccc(O)cc4)no3)cs2)cc1` has an IC50 of > 100 µM (Mycobacteroides abscessus; Bamboo; 72 h).
`CCCc1ccc(-c2c[nH]c(N)n2)cc1` has an IC50 of 17.3 µM (Mycolicibacterium smegmatis; biofilm formation, crystal violet).

Some of these lines once more:
With `O=C(O)c1nc2ccccc2c(=O)n1Cc1cn(-c2ccccc2[N+](=O)[O-])nn1` the IC50 was 521 µg/mL (Candida tropicalis; microbial growth, broth dilution; ATCC750; 24 h).
`CCCCCOc1ccc(-c2c[nH]c(N)n2)cc1` has an IC50 of 12.5 µM (Mycolicibacterium smegmatis; biofilm formation, crystal violet).
The Kd of `GCGGACGGACAGAGAGUGCAACCUGCCGUGCCGC (ssRNA; 2'-F pyrimidines, 5' thiol-C6)` is reported as 0.245 ± 0.0581 µM (ITGA5/ITGB1 on cells (Mus musculus); flow cytometry; MB49-Luc; apparent, no added Mg2+/Ca2+, not purified).
For `CC(C)=CCC/C(C)=C/CNCCNC1C2CC3CC(C2)CC1C3` (stereo not shown), the IC50 was 1 µM (Mycobacterium tuberculosis; growth; Erdman).
`COCCOc1ccc(-c2c[nH]c(N)n2)cc1` gave an IC50 of > 50 µM (Mycolicibacterium smegmatis; biofilm formation, crystal violet).
With `Cc1ccc(Nc2nc(-c3cc(C(=O)Nc4ccc(F)cc4)no3)cs2)cc1` the IC50 was > 100 µM (Mycobacteroides abscessus; Bamboo; 72 h).
